Published values from different studies.
Lines come from different studies, so protocols differ.
Target: MAP kinase-interacting serine/threonine-protein kinase 1 (MKNK1, Homo sapiens, UniProt Q9BUB5)
UniProt Q9BUB5, sequence (whole entry, unmodified, looked up): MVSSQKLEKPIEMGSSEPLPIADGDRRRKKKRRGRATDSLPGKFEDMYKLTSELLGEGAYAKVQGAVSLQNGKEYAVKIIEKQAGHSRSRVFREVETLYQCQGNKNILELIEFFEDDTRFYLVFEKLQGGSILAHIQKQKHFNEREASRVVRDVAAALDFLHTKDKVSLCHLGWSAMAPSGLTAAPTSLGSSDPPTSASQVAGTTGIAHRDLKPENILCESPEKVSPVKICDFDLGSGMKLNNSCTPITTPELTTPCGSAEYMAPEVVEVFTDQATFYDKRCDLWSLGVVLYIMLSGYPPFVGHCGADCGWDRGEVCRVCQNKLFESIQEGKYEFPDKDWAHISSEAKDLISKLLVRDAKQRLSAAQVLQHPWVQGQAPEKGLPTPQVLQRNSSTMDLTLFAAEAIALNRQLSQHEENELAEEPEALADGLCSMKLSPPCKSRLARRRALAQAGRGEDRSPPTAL

With `CN1CCN(Cc2ccc(NC(=O)c3cccc(C#Cc4cnc(N)c5ncccc45)c3)cc2C(F)(F)F)CC1` the remaining binding was 40% (cell-free assay, competition with immobilised ligand; 50 nM).
`Nc1ncc(-c2cc(-c3cnn(CC(F)(F)F)c3)ncc2F)nc1C(=O)NC1CNCC(F)C1` (stereo not drawn) gave a remaining activity of 27.9% (enzyme activity; 1 µM; baseline: DMSO control).
For `C=C1CCCCCCCCCC(CO)C1=O` (stereo not drawn), the remaining binding was 100% (cell-free assay, competition with immobilised ligand; 10 µM).
With `C=CC(=O)Nc1cccc(-c2cnc3[nH]cc(C(=O)NC(C)(C)C)c3n2)c1` the inhibition was 8% (enzyme activity, inhibitor; 0.1 µM).
`CCn1cc(C(=O)O)c(=O)c2c(N)c(F)c(NC3CCCCC3)cc21` gave an inhibition of -7.2% (kinase activity; 0.1 µM, added: ATP at Km).
With `COc1cc(Nc2nc(C)cc(-c3cnn4nc(OC)ccc34)n2)cc(C(F)(F)F)c1` the remaining activity was 93% (inhibitor; 1 µM; baseline: control).
`COc1ccc(NC(=O)Nc2ccc3c(c2)C(=O)N(C(C)CO)CC(C)C(CN(C)Cc2ccc4c(c2)OCO4)O3)cc1` (stereo not drawn) has a remaining binding of 87% (binding, competition with immobilised ligand; 10 µM).
`C[C@H]1CN(C(=O)c2cn(-c3ccnc(N)n3)c3cc(C#CC4(O)CCCCC4)ccc23)CCN1` has an inhibition of 2% (enzyme activity, inhibitor, FRET; 1 µM).
`CN1CCN(Cc2ccc(-c3ccc(CO[C@H]4CCC[C@@H]4NC(=O)c4cc(-c5cnn(C)c5)cnc4N)cc3)cc2)CC1` has an inhibition of -4% (enzyme activity, inhibitor; 0.1 µM).
The remaining activity of `Cc1ccc(C)c(-c2ccc3nc(NC(=O)C4CCCCC4)nn3c2)c1` is reported as 79% (enzyme activity, Dundee kinase panel; 10 µM).
For `Cc1ccc(-c2c[nH]nc2C(=O)NC2CC2)cc1`, the remaining binding was 13% (cell-free assay, competition with immobilised ligand; 10 µM).
With `Nc1nc(Nc2ccccc2)sc1C(=O)c1ccccc1` the remaining activity was 71% (enzyme activity, inhibitor; 10 µM).
The inhibition of `Cc1cccc(O[C@H]2CCC[C@@H](C(C)CNCc3ccncc3)C2)c1` (relative stereo) is reported as 3% (enzyme activity, inhibitor; 1 µM).
`O=C(Cc1ccc(OCc2ccccc2)cc1)NC1(C(=O)O)CCN(C(=O)c2ccc(-c3cccc(Cl)c3)cc2)CC1`: “activity vs control” 132% (enzyme activity, inhibitor; 10 µM).
`CNS(=O)(=O)Nc1nccc(Cc2c(C)c3ccc(Oc4ncccc4F)cc3oc2=O)c1F` has a remaining binding of 100% (binding, competition with immobilised ligand; 10 µM).
With `Cc1cccc(-c2ccc3nc(NC(=O)C4CCOCC4)nn3c2)c1` the remaining activity was 84% (enzyme activity, Dundee kinase panel; 10 µM).
With `NC(=O)C[C@H]1CCc2sc3ncnc(O[C@H]4CC[C@H](N5CCOCC5)CC4)c3c21` the inhibition was 1% (enzyme activity, inhibitor; 10 µM).
`Cc1cnc2nc1Nc1cccc(c1)COC/C=C/COCc1cc(ccc1OCCN1CCOCC1)N2` has a remaining binding of 88% (binding; 0.1 µM).

A few entries again:
The inhibition of `Cc1cccc(O[C@H]2CCC[C@@H](C(C)CNCc3ccncc3)C2)c1` (relative stereo) is reported as 3% (enzyme activity, inhibitor; 1 µM).
`O=C(Cc1ccc(OCc2ccccc2)cc1)NC1(C(=O)O)CCN(C(=O)c2ccc(-c3cccc(Cl)c3)cc2)CC1`: “activity vs control” 132% (enzyme activity, inhibitor; 10 µM).
